Measured values of several laboratories.
± gives the spread as reported.

Cn1c(-c2ccc(C(N)=O)cc2F)nnc1C(C)(C)Oc1c(F)cc(Cl)cc1F
musculoskeletal disorder TEAE (human; oral, 6 mg, single ascending dose): 16.7%

C[C@]1(CO)Cc2ncn(-c3ccc(C#N)c(Cl)c3)c2C(=O)O1
Cmax (human, plasma; 2 mg single dose, geometric mean): 85.1 nM

CC[C@H](C)CCCCC(=O)N[C@@H](CCN)C(=O)N[C@H](C(=O)N[C@@H](CCN)C(=O)N[C@H]1CCNC(=O)[C@H]([C@@H](C)O)NC(=O)[C@H](CCN)NC(=O)[C@H](CCN)NC(=O)[C@H](CC(C)C)NC(=O)[C@@H](Cc2ccccc2)NC(=O)[C@H](CCN)NC1=O)[C@@H](C)O
Cmax (critically ill patients, plasma; intravenous, dose not given, steady state, Low AUC group, median): 3650 ng/mL

C=CC(=O)Nc1cc(Nc2nccc(Nc3cc(Cl)c(F)cc3C(C)(C)O)n2)c(OC)cc1N1CC[C@@H](N(C)C)C1
patients with fatigue (human patients; oral, 400 mg, treatment-emergent adverse events): 35%

O=C(/C=C/c1ccc(O)c(O)c1)O[C@@H]1C[C@](O)(C(=O)O)C[C@@H](O)[C@H]1O
Tmax (Sprague Dawley rat, plasma; oral, 10 g lyophilized powder/kg, high dose): 7.8 ± 3 min

CC(C)(c1ccccc1)c1cc(-n2nc3ccccc3n2)c(O)c(C(C)(C)c2ccccc2)c1
mean daily dermal uptake (exposure assessment; human, age 21-60 years; foundation): 0.48 ng/kg body weight/day

O=C1Nc2cc3[nH]nc(-c4ccncc4)c3cc2CN1Cc1ccccc1
patients with back pain (CTCAE v4.03; advanced solid tumour patients; intravenous, 9.6 mg/kg, schedules 1/2): 22%

CCc1ccc(CC/C=C/c2ccc3c(c2)C(=O)CC3)cc1
potassium (Sprague-Dawley rat, male, serum; oral, 30 mg/kg/day, 14 days): 4.47 mM

O=C(Nc1ccccc1)C1CCN(C(=O)Oc2cccnc2)CC1
change in Strong-feeble score (Bond-Lader VAS; healthy women; 20 mg; relative to: pre-dose baseline, direction not given): -3.7

CN(C(=O)n1cnc(-c2ccc[n+]([O-])c2)c1)C1CCCCC1
concentration (Wistar rat, hippocampus; oral, 10 mg/kg/day, 72 h, repeated 5 days): 10 ± 1.7 ng/g

COc1cc2c(Oc3ccc4[nH]c(C)cc4c3F)ccnc2cc1OCC1(N)CC1
Anorexia incidence (paediatric recurrent refractory sarcoma; 12 mg): 18.2%

C[C@@H](NC(=O)N1C(=O)[C@H](Cc2ccnc(N)c2)[C@H]1C(=O)O)C1CCCCC1
drug-related abnormal liver function (healthy adult Chinese volunteers; continuous intravenous infusion, 1.5 mg/kg/h, 5-day infusion, CTCAE 5.0 grading): 0%

CO[C@H]1C[C@@H]2CC[C@@H](C)[C@@](O)(O2)C(=O)C(=O)N2CCCC[C@H]2C(=O)O[C@H]([C@H](C)C[C@@H]2CC[C@@H](OC(=O)NCCOCCOCCOCCOCCOCCOCCOCCOCCC(=O)N3CCc4cc(Cn5nc(-c6ccc7oc(N)nc7c6)c6c(N)ncnc65)ccc4C3)[C@H](OC)C2)C[C@@H](O)[C@H](C)/C=C(\C)[C@@H](O)[C@@H](OC)C(=O)[C@H](C)C[C@H](C)/C=C/C=C/C=C/1C
diarrhoea incidence (patients with advanced solid tumours; intravenous, 10 mg weekly, any grade): 50%

O=C(c1ccc(F)c(F)c1Nc1ccc(I)cc1F)N1CC(O)([C@@H]2CCCCN2)C1
serious adverse events (human patients; oral, 1 mg/kg, dose expansion): 50%
